Values quoted from earlier work as cited in several papers.
Compare with care: the assays were run in different laboratories.
Sequence of UniProt Q8N752 (whole entry, looked up): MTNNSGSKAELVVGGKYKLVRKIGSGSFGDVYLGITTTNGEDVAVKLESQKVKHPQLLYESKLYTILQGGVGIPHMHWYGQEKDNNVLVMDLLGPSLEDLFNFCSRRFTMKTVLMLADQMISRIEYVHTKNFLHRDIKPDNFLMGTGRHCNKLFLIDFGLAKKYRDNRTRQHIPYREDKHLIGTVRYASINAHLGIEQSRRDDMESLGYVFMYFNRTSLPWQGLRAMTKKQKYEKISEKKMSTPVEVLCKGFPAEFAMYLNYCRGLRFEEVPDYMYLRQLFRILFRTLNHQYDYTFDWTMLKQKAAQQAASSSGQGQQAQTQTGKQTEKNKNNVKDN

Cc1nn(C)cc1S(=O)(=O)NC(=O)c1ccc(-n2ccc(OCC(C)(C)C(F)(F)F)n2)nc1N1C[C@@H](C)CC1(C)C — blood-to-plasma ratio (human): 0.55
CN(C)C(=N)N=C(N)N — blood-to-plasma ratio (human liver failure patients): 1
Nc1cc(C(F)(F)F)c(-c2nc(N3CCOCC3)nc(N3CCOCC3)n2)cn1 — remaining activity (Casein kinase I isoform alpha-like (CSNK1A1L, Homo sapiens, UniProt Q8N752); enzyme activity; 10 µM; baseline: untreated): 95%
CC(O)C(C)n1ncn(-c2ccc(N3CCN(c4ccc(OCC5COC(Cn6cncn6)(c6ccc(Cl)cc6Cl)O5)cc4)CC3)cc2)c1=O (stereo not drawn) — blood-to-plasma ratio (human, blood): 0.58
O=C(O)Cc1ccccc1Nc1c(Cl)cccc1Cl — blood-to-plasma ratio (human; average of reported values): 0.62
COc1ccccc1Oc1c(NS(=O)(=O)c2ccc(C(C)(C)C)cc2)nc(-c2ncccn2)nc1OCCO — blood-to-plasma ratio (human, blood): 0.48 ⁶
CC(C)(CO)c1cc2cc(NC(=O)C3(c4ccc5c(c4)OC(F)(F)O5)CC3)c(F)cc2n1C[C@@H](O)CO — blood-to-plasma ratio (human): 0.658
Cc1cc(=O)n(-c2ccccc2)n1C — blood-to-plasma ratio (human, blood): 1 ²
CC(=O)Nc1ccc(O)cc1 — blood-to-plasma ratio (human; average of reported values): 1.1
